Assay results collected from several papers.
Numbered parts are unrelated; each lists some results of a single study.

Study 1 — method: protein binding microarray; molecule type: double-stranded DNA, one strand shown; matrix: in vitro; concentration: not given; relative to: not given; reading: higher = stronger binding
Target: Histone acetyltransferase KAT6A, winged helix 2, GST fusion (KAT6A, Homo sapiens, UniProt Q92794, residues 85-181)
Notes: 8-mer, flanks averaged, mean of 2 arrays, mostly near background
Construct (chain): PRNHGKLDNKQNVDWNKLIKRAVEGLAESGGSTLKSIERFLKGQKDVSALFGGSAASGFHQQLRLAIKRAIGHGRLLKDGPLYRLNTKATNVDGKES
Oligonucleotide	E-score
AGGTCGCA	0.179
AGTACCAG	0.0688
AGCCATAA	-0.0298
ACGATCGG	-0.091
ACTCTGCC	-0.0191
CAACCTAG	-0.067
ACGACCAA	0.0562
AAGTTAGG	0.0876

Study 2 — method: RNA Bind-n-Seq; molecule type: RNA; matrix: in vitro; concentration: 200 nM; notes: whole 134-nt RNA, ends assumed; with: 150 mM LiCl; relative to: input library; reading: higher = stronger binding; each molecule: 7-deaza-guanosine replaces G
Target: Ras GTPase-activating protein-binding protein 1, full length (G3BP1, Homo sapiens, UniProt Q13283)
Chain of UniProt Q13283 (whole entry, looked up): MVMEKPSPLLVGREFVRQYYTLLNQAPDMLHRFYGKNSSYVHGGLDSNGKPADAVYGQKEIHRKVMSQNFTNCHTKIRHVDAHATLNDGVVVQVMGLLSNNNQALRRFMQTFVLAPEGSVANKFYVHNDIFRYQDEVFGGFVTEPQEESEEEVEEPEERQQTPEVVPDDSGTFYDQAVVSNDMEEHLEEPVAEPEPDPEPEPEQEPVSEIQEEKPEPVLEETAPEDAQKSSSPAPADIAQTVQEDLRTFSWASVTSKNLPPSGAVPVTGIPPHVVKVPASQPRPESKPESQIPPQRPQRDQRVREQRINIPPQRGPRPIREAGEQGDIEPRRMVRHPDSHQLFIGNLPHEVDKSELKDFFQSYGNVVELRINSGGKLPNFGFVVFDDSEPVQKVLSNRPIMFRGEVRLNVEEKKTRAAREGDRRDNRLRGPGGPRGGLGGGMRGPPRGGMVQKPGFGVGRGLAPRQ
Oligonucleotide	log2 enrichment
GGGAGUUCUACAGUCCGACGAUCUGGGAGGUGGAUUUUGUUUAUUUUUUUAGCUCAUUUCCAGGGGUGGGAAUUUUUUUUUAAUAUGUGUCAUGAAUAAAGUAGUUUUUGAAAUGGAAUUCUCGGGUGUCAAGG	-0.111
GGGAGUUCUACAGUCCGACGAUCUCAAGUCCUGUGCUACACAUCGUAUGUACCGAAUCGGAGGUUUUUUUGGAAAGGAAAGUAUUAUGUUACGCCGUUCGGAUCUGCACUUCCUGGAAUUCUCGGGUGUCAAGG	-0.636
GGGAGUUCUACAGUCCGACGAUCGCAGGAAGUAAAAACAAAUGGAAAUGCUUCGGAUAGUGGCAGGGGUGGGGGUUGCUAAGGAAAUGGUGGGAUGGGAGUGGGUAAAGAGUUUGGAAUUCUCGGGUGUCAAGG	0.126
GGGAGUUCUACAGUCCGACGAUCUACCAUGGUGGAAGUUCCCGUUCUCGUAGCAGUAUUUUCCAUGCAGGAAAAAGCCAAGGACUACAUGAAAACAACAUACCUGACAAUGAAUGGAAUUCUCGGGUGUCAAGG	0.172
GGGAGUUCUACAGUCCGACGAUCGCAGGAAGUCAAAACAAAUGGAAAUGCUUCGGAUAGUGGCAGGGGUGGGGGUUGCUAAGGAAAGGGUGGGAUGGGAGUGGGUAAAGAGUUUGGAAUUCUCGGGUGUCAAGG	0.0171
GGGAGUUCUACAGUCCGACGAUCUGGGAGGUGGAUUUUGUUUAUUUUUUUAGCUCAUUUCCAGGGGUGGGAAUUUUUUUUUAAUAUGUGUCAUGAAUAAAGUUAUUUUUGAAAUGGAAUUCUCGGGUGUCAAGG	-0.474
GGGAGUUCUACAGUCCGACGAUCUGCCCAGCUCAUGCUGGACCACCUGAAGAACAGUGCUCCCAGCAAGCGAGAGAUUGCCCAGCUCAAGAACCAGGUAUCCACAGAGAGCACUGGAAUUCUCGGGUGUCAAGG	0.148

Study 3 — method: protein-binding microarray; molecule type: double-stranded DNA, one strand shown; matrix: in vitro; concentration: 250 nM; notes: 60-bp whole probe; with: salmon DNA 0.4 mg/ml; relative to: random background probes; reading: higher = stronger binding; constant ends, left off below: GCCTAGCAC … GTCTTGATTCGCTTGACGCTGCTG
Target: Interferon regulatory factor 5, full length, phosphomimetic (IRF5, Homo sapiens, UniProt Q13568-2, residues 1-514, K96S/S451D/S453D/S456D/S462D)
Oligonucleotide	log fluorescence [z-score]
TTAGGAATCGACTTTCGGTTAGTGCTA	10.1
GACGATCTCAGTATTGAGACGTGCTAG	-0.0365
TTATGTATCGGACTGGGTTAGTGCTAG	1.71
ACAAGTTTTTATTTTCTGAAGTGCTAG	1.67
TCATTTCTCCTTTCCAAACTGTGCTAG	1.94
GACGGTTTCGGTCTCGAGACGTGCTAG	9.14
GACGTACTGGGGTATCGAGACGTGCTA	0.0178
TTAGGACTGAACACTGGGTTAGTGCTA	-0.184

Mixed results
Substance	target	test	test system	setting	scale	quantity	result
PhoQ, residues 284 288 289 292 302 303 ASVMEA	PhoP, residues 12 14 15 18 19 LYHSL (Escherichia coli, UniProt P23836)	Sort-seq, refers to: YFP reporter	E. coli	PhoQ-PhoP variant library, with: 10 µM Mg2+	relative to: high Mg2+ state, higher = stronger signaling	fold induction	20.5

Excerpt of the above (study 1):
Oligonucleotide	E-score
AGGTCGCA	0.179
AGTACCAG	0.0688
AGCCATAA	-0.0298
